Assay results pooled from the literature.
Protocols differ between the studies behind these lines. Values joined by “and” are separate records of one study, mostly repeats; a detail may differ. ± marks the error that the study gave.

SMILES = CC(C)NC[C@@H](C(=O)N1CCN(c2ncnc3c2[C@H](C)C[C@H]3O)CC1)c1ccc(Cl)cc1; test system = human, hepatic impairment Severe (Child-Pugh), plasma; setting = oral, 100 mg single, geometric mean; measurement = AUC(0-inf); result = 920 ng·h/mL
SMILES = CCOc1c([C@H](C)n2nc(C)c3c(N)ncnc32)cc(Cl)c(F)c1[C@@H]1CNC(=O)C1; test system = healthy fasted humans, plasma; setting = oral, 10 mg; measurement = AUC(0-inf) geometric mean; result = 7.46 µM·h
SMILES = C[C@@H](Oc1cc(-c2cnn(C3CCNCC3)c2)cnc1N)c1c(Cl)ccc(F)c1Cl; test system = healthy human; setting = oral, 250 mg, together with: esomeprazole 40 mg daily 5 days; how to read = baseline: compound alone; measurement = AUC(0-inf) decrease; result = 10% and ~10%
SMILES = CO[C@H]1C[C@@H]2CC[C@@H](C)[C@@](O)(O2)C(=O)C(=O)N2CCCC[C@H]2C(=O)O[C@H]([C@H](C)C[C@@H]2CC[C@@H](O)[C@H](OC)C2)CC(=O)[C@H](C)/C=C(\C)[C@@H](O)[C@@H](OC)C(=O)[C@H](C)C[C@H](C)/C=C/C=C/C=C/1C; test system = human, whole blood; setting = oral, 35 mg, without grapefruit juice; measurement = AUC(0-inf); result = 1800 ng·h/mL
SMILES = Cc1ccc(NC(=O)c2ccc(CN3CCN(C)CC3)cc2)cc1Nc1nccc(-c2cncc(-c3oncc3C)c2)n1; test system = older healthy human adults, plasma; setting = oral, 250 mg single dose, fed, mean; measurement = AUC(0-inf); result = 214000 ng·h/mL
SMILES = CC(C)(C)OC[C@@H]1C(=O)NCCN1C(=O)C[C@H](N)Cc1cc(F)c(F)cc1F; test system = human; setting = 20 mg once daily, day 10; measurement = AUC(0-inf) at steady state; result = 680 ± 78.1 ng·h/mL
SMILES = CO[C@H]1C[C@@H]2CC[C@@H](C)[C@@](O)(O2)C(=O)C(=O)N2CCCC[C@H]2C(=O)O[C@H]([C@H](C)C[C@@H]2CC[C@@H](OCCO)[C@H](OC)C2)CC(=O)[C@H](C)/C=C(\C)[C@@H](O)[C@@H](OC)C(=O)[C@H](C)C[C@H](C)/C=C/C=C/C=C/1C; test system = healthy human adults, blood; setting = dose not given, together with: ritonavir-containing 3D regimen; how to read = baseline: with over without regimen; measurement = AUC(0-inf) ratio; result = 27.1
SMILES = C=CC(=O)Nc1cc(Nc2ncc(C(=O)OC(C)C)c(-c3cn(C)c4ccccc34)n2)c(OC)cc1N(C)CCN(C)C; test system = human, fasted; setting = oral, 120 mg single dose, arithmetic mean; measurement = AUC(0-inf); result = 494 ng·h/mL
SMILES = O=C(NC[C@H]1CN(c2ccc(N3CCOCC3=O)cc2)C(=O)O1)c1ccc(Cl)s1; test system = human, mild renal impairment, plasma; setting = oral, 10 mg, together with: erythromycin at steady state; how to read = baseline: same subjects, compound alone; measurement = AUC(0-inf) increase; result = ~54%
SMILES = NS(=O)(=O)OC[C@@H]1C[C@@H](n2ccc3c(N[C@H]4CCc5ccccc54)ncnc32)C[C@@H]1O; test system = human; setting = intravenous, 8 mg/m^2, together with: itraconazole; how to read = baseline: with over without itraconazole; measurement = AUC(0-inf) ratio; result = 123%
SMILES = COC(=O)c1ccc2c(c1)NC(=O)/C2=C(\Nc1ccc(N(C)C(=O)CN2CCN(C)CC2)cc1)c1ccccc1; test system = human, healthy, plasma; setting = oral, 150 mg, together with: rifampicin 600 mg; how to read = baseline: alone; measurement = AUC(0-inf) ratio; result = 50.1%

A few entries again:
SMILES = NS(=O)(=O)OC[C@@H]1C[C@@H](n2ccc3c(N[C@H]4CCc5ccccc54)ncnc32)C[C@@H]1O; test system = human; setting = intravenous, 8 mg/m^2, together with: itraconazole; how to read = baseline: with over without itraconazole; measurement = AUC(0-inf) ratio; result = 123%
